Measured values gathered from unrelated publications.
A part holds a random share of what one study measured. Substitutions count along the parent as printed.
UniProt O75116, sequence (whole entry, looked up): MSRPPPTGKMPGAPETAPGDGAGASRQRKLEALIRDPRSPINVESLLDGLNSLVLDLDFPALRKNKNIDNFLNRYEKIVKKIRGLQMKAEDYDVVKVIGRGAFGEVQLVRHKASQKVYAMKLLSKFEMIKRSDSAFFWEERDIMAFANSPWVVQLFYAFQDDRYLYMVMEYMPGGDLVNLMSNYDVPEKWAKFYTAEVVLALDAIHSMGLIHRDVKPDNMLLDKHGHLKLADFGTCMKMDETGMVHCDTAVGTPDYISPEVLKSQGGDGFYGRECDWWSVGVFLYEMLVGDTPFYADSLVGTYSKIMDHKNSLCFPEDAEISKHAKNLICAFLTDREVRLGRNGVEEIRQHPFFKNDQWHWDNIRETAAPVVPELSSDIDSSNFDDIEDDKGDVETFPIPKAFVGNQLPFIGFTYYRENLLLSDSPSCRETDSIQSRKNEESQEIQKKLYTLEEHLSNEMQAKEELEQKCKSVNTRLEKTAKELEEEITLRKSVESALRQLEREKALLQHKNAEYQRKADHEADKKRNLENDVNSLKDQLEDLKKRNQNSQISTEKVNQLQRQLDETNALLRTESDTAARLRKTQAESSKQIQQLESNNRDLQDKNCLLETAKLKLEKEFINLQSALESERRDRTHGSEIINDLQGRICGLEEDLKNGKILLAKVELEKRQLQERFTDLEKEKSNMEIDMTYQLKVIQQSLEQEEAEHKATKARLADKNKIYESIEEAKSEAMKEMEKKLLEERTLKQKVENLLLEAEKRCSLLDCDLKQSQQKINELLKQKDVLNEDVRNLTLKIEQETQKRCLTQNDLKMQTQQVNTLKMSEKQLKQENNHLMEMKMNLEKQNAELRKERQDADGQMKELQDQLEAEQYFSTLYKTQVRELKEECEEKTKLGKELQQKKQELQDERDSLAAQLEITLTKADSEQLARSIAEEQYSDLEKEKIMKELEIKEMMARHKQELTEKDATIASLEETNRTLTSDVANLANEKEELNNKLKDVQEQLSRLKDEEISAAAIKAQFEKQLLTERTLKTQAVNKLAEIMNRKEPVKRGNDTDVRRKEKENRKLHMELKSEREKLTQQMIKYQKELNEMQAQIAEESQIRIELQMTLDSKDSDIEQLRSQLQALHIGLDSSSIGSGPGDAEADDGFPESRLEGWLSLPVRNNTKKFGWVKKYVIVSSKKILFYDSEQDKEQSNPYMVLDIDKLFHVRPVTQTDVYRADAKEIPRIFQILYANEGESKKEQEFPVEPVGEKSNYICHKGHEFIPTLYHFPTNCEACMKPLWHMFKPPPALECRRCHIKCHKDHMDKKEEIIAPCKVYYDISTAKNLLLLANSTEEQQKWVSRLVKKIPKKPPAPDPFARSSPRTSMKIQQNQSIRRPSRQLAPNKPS

Sample 1
Target: RNA binding protein fox-1 homolog 2, RRM domain, GST-SBP tag (RBFOX2, Homo sapiens, UniProt O43251-10, residues 100-194)
Method: RNA Bind-n-Seq
Form: RNA
Medium: in vitro
Concentration: 365 nM
Setting: natural RNA segment, single round, ends assumed
Relative to: no-protein control
Reading: higher = stronger binding
Shared flanks, not repeated: GGGAGUUCUACAGUCCGACGAUC … UGGAAUUCUCGGGUGCCAA
Target sequence (chain): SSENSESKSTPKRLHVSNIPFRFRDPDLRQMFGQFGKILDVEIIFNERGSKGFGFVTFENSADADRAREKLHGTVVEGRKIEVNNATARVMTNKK
| Sequence | RBNS enrichment (R) |
| --- | --- |
| GCAGGCACCUCCCAAAUAUCUUGAGGACACUGGCAGCCUUAUGGUGACUAAAUCCACACUUUCUUUAAAGAGAUGCAGAUGAAUUACUUUUCUGUUAAUAUAUAGAAAAA | 0.485 |
| AGAAAACAGAAAGAAGCUACAACAUGGCUCUAGUGUUGCAAUGUUUUCUAUAAGCACACUGACCUUAUGGGGCCAUGUUAUUUUUAUAUGAUAAACGUCUUCCAUAGAAC | 0.367 |
| GGCUUCAGAAGUCAUGUCAGUGUCUCUGUAGACAAACUCCACUGUACAUCUUGGAUUAAUCUUCUGAUUCAUUGUUCAUUUUCUCAAGACUUUUUGUGGAAUUCUCUGAU | 0.469 |
| GCAUAAACACUGUGCAGUUUUCCUGCUUGCCAGCCUGUGUGCCAUCUGUUCUCACAGCCUCUGAGAUGUCUCAGGUGAGAGCCAUGGGGUGGAACCAUAAAGUCCCCAUC | 0.271 |
| CCUAAACUGACUGAAGAGUUUGUCCUGACUUUAUUAAUUGCAGUCUCACAGAAUGCUCAUCAUUCUCCUUCAGCUGUUGCCAUUUUCUUUCAAUCUGAAAAUUAAAGACA | 0.508 |
| UUUGAAAUGCUUUACAAAGGAAAACUGCAUGCCACAUGAGAAAACUUCAAAGUACACUUGCAAUGCAGUGUAUGCCUGUAGUUGCUGCUGCCACCGGCAGGGGGCCUUUG | 5.11 |
| GCUCUGGGUUUUCUUUAUCCUGCCUCCCGAGACUUCUGACCCCCCUUUCCCAGCUUCAGAUCUUGGGGAGAUCCAUCCAAGGGGUUCAGCCCUCUCCUGCCUCCAUGCCU | 0.404 |
| UAAGUUAAUGUUUUUAGUUUUUUCUCCUUUUCCCUGCCCUGCCCUGACUUUACAUGAAACAAGUUCAGUUUCGUUUACCAGCCUUUCUGGGUUCCCUUUGACUCCCCUGC | 1.06 |

Sample 2
Target: CCNE2, cyclin fold, Cln2 fusion (human)
Method: yeast growth competition, sequencing
Medium: yeast
Setting: weak parent motif
Relative to: not given
Reading: higher = stronger binding
Starting sequence: MASTL docking peptide (human); PMIAKNLMCELDE
| Change | normalised enrichment score |
| --- | --- |
| PMIAKNLMCELEE [D12E] | -0.0658 |
| PMIAKNLMCENDE [L11N] | -0.168 |
| PMIAKWLMCELDE [N6W] | 0.158 |
| PMIEKNLMCELDE [A4E] | -0.411 |
| PYIAKNLMCELDE [M2Y] | 0.145 |
| PMIAKNLMNELDE [C9N] | 0.0254 |
| PKIAKNLMCELDE [M2K] | 0.259 |
| PMIAINLMCELDE [K5I] | 0.0327 |

Sample 3
Target: PABPC1L2, full length, GST fusion (mouse, UniProt A0ABA7IW68)
Method: RNAcompete
Form: RNA
Medium: in vitro
Concentration: 20 nM
Setting: 7-mer, probes averaged, single round
Relative to: mean of 7-mers
Reading: higher = stronger binding
| Sequence | 7-mer Z-score |
| --- | --- |
| GUACCCU | -0.356 |
| UUGGUAA | -0.103 |
| ACACAAU | 0.131 |
| CACGUUC | -0.336 |
| UAUGCUC | -0.142 |
| UUCAACG | -0.124 |
| CAUACUA | -0.242 |
| AGAAUCU | -0.222 |

Single results of other studies
| SMILES | target | assay | setting | scale | measurement | value |
| --- | --- | --- | --- | --- | --- | --- |
| Oc1ccc(-c2nc(-c3ccncc3)c(-c3ccc(F)cc3)[nH]2)cc1 | Rho-associated protein kinase 2 (ROCK2, Homo sapiens, UniProt O75116) | enzyme activity, inhibitor | 0.5 µM | relative to: control | remaining activity | 93.6% |

Excerpt of the above (sample 3):
| Sequence | 7-mer Z-score |
| --- | --- |
| CAUACUA | -0.242 |
| ACACAAU | 0.131 |
| AGAAUCU | -0.222 |
| GUACCCU | -0.356 |
